Measured values collected from several papers.
Protocols differ between the studies behind these lines. ± marks the error that the study gave.

The half-life of `C[C@@H]1CCC[C@H](n2cnc(-c3cc(Cl)ccc3-n3cc(Cl)nn3)cc2=O)c2cc(ccn2)-c2c(cnn2C(F)F)NC1=O` is reported as 18.1 h (human, fasted; 20 mg once daily, day 14).
The half-life of `Cc1ccc(NC(=O)c2ccc(CN3CCN(C)CC3)cc2)cc1Nc1nccc(-c2cncc(-c3oncc3C)c2)n1` is reported as 32 h (older healthy human adults, plasma; oral, 100 mg single dose, fed, mean).
The half-life of `N#CCNC(=O)c1ccc(-c2ccnc(Nc3ccc(N4CCOCC4=O)cc3)n2)cc1` is reported as 8.1 h (human, plasma; oral, 100 mg momelotinib once daily, cycle 1 day 15, median, added: trametinib 1.0 mg once daily).
For `CCOc1ccc(Cc2cc([C@@H]3S[C@H](CO)[C@@H](O)[C@H](O)[C@H]3O)c(OC)cc2C)cc1`, the half-life was 9.14 ± 1.11 h (human, plasma; oral, 10 mg/day, day 7, multiple dose before breakfast).
The half-life of `O=CC[C@@H](O)[C@H](O)[C@H](O)CO` is reported as 5.3 ± 1.1 h (HPLC-fluorescence; human patients, plasma; oral, 30 mg/kg/day, cycle 2).
`CCS(=O)(=O)N1CC(CC#N)(n2cc(-c3ncnc4[nH]ccc34)cn2)C1` gave a half-life of 5.7 to 7.6 h (healthy Chinese human, plasma; oral, once daily, 2 to 10 mg, day 10).
For `CO[C@H]1C[C@@H]2CC[C@@H](C)[C@@](O)(O2)C(=O)C(=O)N2CCCC[C@H]2C(=O)O[C@H]([C@H](C)C[C@@H]2CC[C@@H](O)[C@H](OC)C2)CC(=O)[C@H](C)/C=C(\C)[C@@H](O)[C@@H](OC)C(=O)[C@H](C)C[C@H](C)/C=C/C=C/C=C/1C`, the half-life was 26 h (human, whole blood; oral, 20 mg, without grapefruit juice).
With `CCCOc1ccc([C@H]2CNC(=O)N2c2ccc3[nH]cnc3c2)cc1` the half-life was 6.91 h (human, fasted, elderly, CSF; oral, 500 mg twice daily, tablet, day 11, geometric mean).
With `CC(C)(Sc1ccncc1-c1ccc(C#N)c2ccccc12)C(=O)O` the half-life was 8.26 h (human; oral, 10 mg, added: febuxostat 40 mg).
The half-life of `CCOc1cc([C@@H](CS(C)(=O)=O)N2C(=O)c3cccc(NC(C)=O)c3C2=O)ccc1O[C@@H]1O[C@H](C(=O)O)[C@@H](O)[C@H](O)[C@H]1O` is reported as 13.2 h (healthy human controls, plasma; oral, 30 mg apremilast, matched to mild impairment).
`C[C@H](N)C(=O)N1C[C@H](CCCB(O)O)[C@](N)(C(=O)O)C1` gave a half-life of 6 ± 2.2 h (human, plasma; oral, 100 mg twice daily, cycle 1 day 15).
With `CN(C)C(=O)c1cc2cnc(Nc3ccc(N4CCNCC4)cn3)nc2n1C1CCCC1` the half-life was 56.2 h (human, severe renal impairment, plasma; oral, 400 mg, geometric mean).
`CO[C@H]1C[C@@H]2CC[C@@H](C)[C@@](O)(O2)C(=O)C(=O)N2CCCC[C@H]2C(=O)O[C@H]([C@H](C)C[C@@H]2CC[C@@H](OC(=O)C(C)(CO)CO)[C@H](OC)C2)CC(=O)[C@H](C)/C=C(\C)[C@@H](O)[C@@H](OC)C(=O)[C@H](C)C[C@H](C)/C=C/C=C/C=C/1C` gave a half-life of 11.7 h (human; intravenous, 35 mg/m^2 weekly, cycle 1, median, added: valproic acid).
`C=CC(=O)N1CCC([C@@H]2CCNc3c(C(N)=O)c(-c4ccc(Oc5ccccc5)cc4)nn32)CC1` gave a half-life of 8.1 h (human; oral, 480 mg, single dose, mean).
With `C[C@H]1CNCCCN1S(=O)(=O)c1cccc2cncc(F)c12` the half-life was 0.325 h (human, male, plasma; ocular instillation, 1 drop per eye twice daily, day 8, added: brimonidine fixed-dose combination).
For `CNC(=O)c1c(C)oc2cc(Oc3ncnc4cc(OC)c(OC)cc34)ccc12`, the half-life was 33.6 h (human, plasma; oral, 5 mg, fasted).
`CCCC[C@H](NC(C)=O)C(=O)N[C@H]1CCC(=O)NC[C@@H](C(=O)N[C@@H](Cc2c[nH]c3ccccc23)C(N)=O)NC(=O)[C@H](CCCNC(=N)N)NC(=O)[C@@H](Cc2ccccc2)NC(=O)[C@H](Cc2c[nH]cn2)NC1=O` gave a half-life of 7.2 h (healthy human, both sexes, plasma; subcutaneous, 1.0 mg once daily, day 7, median).
`C/C=C1\NC(=O)[C@H]2CSSCC/C=C/[C@H](CC(=O)N[C@H](C(C)C)C(=O)N2)OC(=O)[C@H](C(C)C)NC1=O` gave a half-life of 13.4 ± 4.5 h (human, plasma; i.v., 8 mg/m^2).

For quick reference, copied from above:
The half-life of `CCOc1cc([C@@H](CS(C)(=O)=O)N2C(=O)c3cccc(NC(C)=O)c3C2=O)ccc1O[C@@H]1O[C@H](C(=O)O)[C@@H](O)[C@H](O)[C@H]1O` is reported as 13.2 h (healthy human controls, plasma; oral, 30 mg apremilast, matched to mild impairment).
